Published values gathered from unrelated publications.
A part holds a random share of what one study measured. Changes are numbered by the printed parent chain.
UniProt O15294, sequence (whole entry, looked up): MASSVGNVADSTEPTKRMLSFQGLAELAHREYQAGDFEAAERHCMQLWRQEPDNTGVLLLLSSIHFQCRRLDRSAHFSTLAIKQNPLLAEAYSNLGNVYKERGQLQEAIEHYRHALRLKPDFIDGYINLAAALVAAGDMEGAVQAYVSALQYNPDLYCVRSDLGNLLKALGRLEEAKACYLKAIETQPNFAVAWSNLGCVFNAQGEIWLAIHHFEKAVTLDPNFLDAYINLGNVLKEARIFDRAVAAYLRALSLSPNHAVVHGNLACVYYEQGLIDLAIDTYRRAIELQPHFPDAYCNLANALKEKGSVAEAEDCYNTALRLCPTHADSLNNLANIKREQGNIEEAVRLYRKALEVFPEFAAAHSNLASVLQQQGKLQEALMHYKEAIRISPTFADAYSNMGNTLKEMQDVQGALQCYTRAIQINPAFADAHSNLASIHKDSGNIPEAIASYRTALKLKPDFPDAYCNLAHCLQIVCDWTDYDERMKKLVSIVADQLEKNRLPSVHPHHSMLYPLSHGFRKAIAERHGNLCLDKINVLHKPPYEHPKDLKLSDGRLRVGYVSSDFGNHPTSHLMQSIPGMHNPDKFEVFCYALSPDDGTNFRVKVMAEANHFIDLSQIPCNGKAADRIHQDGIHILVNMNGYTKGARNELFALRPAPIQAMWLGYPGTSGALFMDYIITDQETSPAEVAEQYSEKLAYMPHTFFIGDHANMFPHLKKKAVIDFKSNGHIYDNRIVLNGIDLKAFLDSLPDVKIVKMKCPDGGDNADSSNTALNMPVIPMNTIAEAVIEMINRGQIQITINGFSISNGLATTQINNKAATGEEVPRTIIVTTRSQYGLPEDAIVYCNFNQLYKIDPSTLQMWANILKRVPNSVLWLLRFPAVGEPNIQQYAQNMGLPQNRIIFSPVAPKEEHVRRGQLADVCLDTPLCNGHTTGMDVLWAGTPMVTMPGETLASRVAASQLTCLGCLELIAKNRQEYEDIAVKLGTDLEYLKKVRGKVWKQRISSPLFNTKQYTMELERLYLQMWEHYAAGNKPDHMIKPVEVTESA

Block 1
Target: POU domain, class 5, transcription factor 1, POU domain (Pou5f1, Mus musculus, UniProt P20263, residues 131-289)
UniProt P20263, sequence (131-289, looked up): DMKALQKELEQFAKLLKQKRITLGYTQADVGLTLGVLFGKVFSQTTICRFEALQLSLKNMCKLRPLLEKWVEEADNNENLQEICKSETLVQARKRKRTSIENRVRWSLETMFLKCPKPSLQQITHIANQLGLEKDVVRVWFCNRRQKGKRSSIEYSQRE
Method: Spec-seq
Molecule type: double-stranded DNA, one strand shown
Matrix: in vitro
Tested at: not given
Notes: whole probe, mean of replicates
Relative to: not given
Direction: lower = stronger binding
Constant ends, left off below: GAGTCGTCTCGTCAGCAC … CCGTAGAGCACTCAGGTC
Under “relative binding energy”, `CTCGTAAT` is recorded as 1.02 ln ratio.
`ATGTAAAT`: “relative binding energy” -1.87 ln ratio.
`ATATACAT`: “relative binding energy” -1.18 ln ratio.
Under “relative binding energy”, `ATGCTAGC` is recorded as 0.576 ln ratio.
`ATTCCCAT` — result for “relative binding energy”: 0.108 ln ratio.
Under “relative binding energy”, `ATCTTGAT` is recorded as 0.628 ln ratio.
Under “relative binding energy”, `ATGCCAGT` is recorded as 0.762 ln ratio.
For `ATGTGGAT`, “relative binding energy” read 0.496 ln ratio.

Block 2
Target: CRIPT, C-terminal peptide
Method: DHFR complementation, deep sequencing
Matrix: yeast
Notes: single substitutions, model-inferred values
Relative to: wild type
Direction: higher = weaker binding
Parent: ERBIN, PDZ domain 1 (human); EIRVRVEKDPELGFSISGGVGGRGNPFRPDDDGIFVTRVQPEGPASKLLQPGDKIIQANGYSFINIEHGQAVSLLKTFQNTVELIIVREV; partner TKNYKQTSV
Under “binding free energy change”, `I64K` is recorded as -0.00494 kcal/mol.
Under “binding free energy change”, `R3P` is recorded as 0.0673 kcal/mol.
`F78R` — result for “binding free energy change”: 0.462 kcal/mol.
Under “binding free energy change”, `G18L` is recorded as 1.05 kcal/mol.
`N65K` — result for “binding free energy change”: 0.144 kcal/mol.
Under “binding free energy change”, `I85M` is recorded as -0.0194 kcal/mol.
`V20M`: “binding free energy change” -0.213 kcal/mol.
`N59Y` — result for “binding free energy change”: 0.634 kcal/mol.

Block 3
Target: Prothrombin, mature alpha-thrombin (F2, Homo sapiens, UniProt P00734)
Method: aptamer microarray, sandwich
Molecule type: DNA with 2'F-ANA
Matrix: in vitro
Tested at: 200 nM
Notes: whole 15-mer aptamer, many near background
Together with: Cy3 exosite-II aptamer, 400 nM
Direction: higher = stronger binding
Strand: GGTTGGTGTGGTTGG
For `2'F-ANA at 3 6 12 13 15`, “mean fluorescence intensity” read 1090 a.u.
`2'F-ANA at 2 8 9 10 12 13 14` — result for “mean fluorescence intensity”: 94.5 a.u.
For `2'F-ANA at 1 3 4 7 8 9 10`, “mean fluorescence intensity” read 68.9 a.u.
Under “mean fluorescence intensity”, `2'F-ANA at 1 2 3 6 7 8 10 11 12 13 15` is recorded as 79.8 a.u.
For `2'F-ANA at 2 4 10 13 15`, “mean fluorescence intensity” read 79.1 a.u.
Under “mean fluorescence intensity”, `2'F-ANA at 2 5 6 7 8 9 10 11 13 14` is recorded as 56.7 a.u.
Under “mean fluorescence intensity”, `2'F-ANA at 1 2 5 7 10 11 12 15` is recorded as 48.5 a.u.
`2'F-ANA at 1 2 3 4 10 14 15` — result for “mean fluorescence intensity”: 50.5 a.u.

Further values, each from its own experiment
`EMEVYDYFPFYQIQV` — result for “enrichment fold change”: 3.11 (UDP-N-acetylglucosamine--peptide N-acetylglucosaminyltransferase 110 kDa subunit (OGT, Homo sapiens, UniProt O15294); binding, phage display NGS; peptide; concentration not given; relative to: input library).

Some of these lines once more (block 2):
Under “binding free energy change”, `G18L` is recorded as 1.05 kcal/mol.
`N65K` — result for “binding free energy change”: 0.144 kcal/mol.
